Measurements collected from several papers.
Each numbered part is a random draw from the data of one study; scales do not carry over between parts. Substitutions count along the parent as printed.

Series 1
Target: CCNF, cyclin fold, Cln2 fusion (human)
Method: yeast growth competition, sequencing
Matrix: yeast
Notes: strong parent motif
Baseline: not given
Direction: higher = stronger binding
Endpoint: normalised enrichment score
Starting sequence: WEE1 docking peptide (human); HKTFRKLRLFDTP
Substitution = HITFRKLRLFDTP [K2I]; result = 1.55
Substitution = HKLFRKLRLFDTP [T3L]; result = 1.92
Substitution = HKIFRKLRLFDTP [T3I]; result = 1.72
Substitution = HKCFRKLRLFDTP [T3C]; result = 1.95
Substitution = HKMFRKLRLFDTP [T3M]; result = 1.71
Substitution = HYTFRKLRLFDTP [K2Y]; result = 2.02
Substitution = HGTFRKLRLFDTP [K2G]; result = 2.82
Substitution = HKTFRKWRLFDTP [L7W]; result = 2.01
Substitution = HTTFRKLRLFDTP [K2T]; result = 1.93
Substitution = HKTFRKLRLFDTL [P13L]; result = 1.46
Substitution = LKTFRKLRLFDTP [H1L]; result = 1.55
Substitution = HKTFRKLRLFDFP [T12F]; result = 2.19
Substitution = HKKFRKLRLFDTP [T3K]; result = 1.24
Substitution = HKTFRKLRLFYTP [D11Y]; result = 2.04
Substitution = HKTFVKLRLFDTP [R5V]; result = 1.12
Substitution = HKTFRKLRLFFTP [D11F]; result = 2.39
Substitution = HKVFRKLRLFDTP [T3V]; result = 3.81

Series 2
Target: Ras GTPase-activating protein-binding protein 1, RRM domain (G3BP1, Homo sapiens, UniProt Q13283)
UniProt Q13283, sequence (whole entry, looked up): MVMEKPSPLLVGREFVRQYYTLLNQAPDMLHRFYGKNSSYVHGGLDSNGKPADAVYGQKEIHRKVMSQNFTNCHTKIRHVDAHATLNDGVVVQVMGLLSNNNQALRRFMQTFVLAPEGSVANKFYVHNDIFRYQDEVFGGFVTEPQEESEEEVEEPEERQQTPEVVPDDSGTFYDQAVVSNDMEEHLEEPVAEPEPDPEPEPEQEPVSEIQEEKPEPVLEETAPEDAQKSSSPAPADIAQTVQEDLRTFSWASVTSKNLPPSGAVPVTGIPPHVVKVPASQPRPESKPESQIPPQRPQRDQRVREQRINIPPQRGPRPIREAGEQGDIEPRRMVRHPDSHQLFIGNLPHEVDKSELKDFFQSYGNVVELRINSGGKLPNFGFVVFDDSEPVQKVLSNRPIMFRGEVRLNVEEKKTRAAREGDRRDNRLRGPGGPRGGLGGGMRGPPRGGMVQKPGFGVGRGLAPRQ
Method: RNA Bind-n-Seq
Form: RNA
Matrix: in vitro
Tested at: 1 µM
Notes: whole 134-nt RNA, ends assumed
Added: 150 mM KCl
Baseline: input library
Direction: higher = stronger binding
Endpoint: log2 enrichment
Shared flanks, not repeated: GGGAGUUCUACAGUCCGACGAUC … UGGAAUUCUCGGGUGUCAAGG
Oligonucleotide = AUUUUUUGUAUCAAGUCCCUGAAUGGAAGUAUGACGUUGGGUCCCUCUGAAGUUUAAUUCUGAGUUCUCAUUAAAAGAAAUUUGCUUUCA; result = -0.479
Oligonucleotide = GUCCUGUGCUACACAUCGUAUGUACCGAAUCGGGUUUUUGGGUUUGGGUUUUUUUGGGAAAGUAUUAUGUUACGCCGUUCGGAUCUGCAC; result = 0.017
Oligonucleotide = UCCUCAAGUCCUGUGCUACACAUCGUAUGUACCGAAUCGGGCGGCGGCGGGAAAGUAUUAUGUUACGCCGUUCGGAUCUGCACUUCCAGC; result = -0.17
Oligonucleotide = UGUGACAGGAGAGCGCUUGAAGAGCAAUGUGACGAGGACCAUCAGACACCGAGGGAUGGAGAGACAUCCCACAGGGCCCAGAUUCAGCAG; result = -0.0962
Oligonucleotide = CCUGUGCUACACAUCGUAUGUACCGAAUCGGGGUUUUUGGGGUUUGGGGAAAAAAAGGGGAAAGUAUUAUGUUACGCCGUUCGGAUCUGC; result = 0.605
Oligonucleotide = UCAAGUCCUGUGCUACACAUCGUAUGUACCGAAUCGGUGGAAAAAAAGGAAAGGAAAGUAUUAUGUUACGCCGUUCGGAUCUGCACUUCC; result = -0.0903
Oligonucleotide = UCCUGUGCUACACAUCGUAUGUACCGAAUCGGUUUUUUUGGAAAAAAAGGAAAAAAAGGAAAGUAUUAUGUUACGCCGUUCGGAUCUGCA; result = -0.142
Oligonucleotide = ACCAUGCAGGUGGGCAUCUUUGGGAAGUGGGGCAAGGGGGGGAUAGGGAGGGGGGUAACACUUUGGGAACAGGUGGUCCCAGGUAAAUUC; result = -0.569
Oligonucleotide = GCAGGAAGUAAAAACAAAUGGAAAUGCUUCGGAUAGUGGCAGGGGUGGGGGUUGCUAAGGAAAGGGUGGGACGGGAGUGGGUAAAGAGUU; result = 0.978

Series 3
Target: ABI1, truncated, D143A, DHFR fusion (Arabidopsis thaliana)
Method: DHFR PCA, deep sequencing
Matrix: yeast
Notes: methotrexate growth selection, single substitutions
Added: (+)-ABA 0.032 µM
Baseline: wild-type fitted maximum
Direction: higher = stronger binding
Endpoint: relative binding score
Starting sequence: PYL1, truncated, DHFR fusion (Arabidopsis thaliana); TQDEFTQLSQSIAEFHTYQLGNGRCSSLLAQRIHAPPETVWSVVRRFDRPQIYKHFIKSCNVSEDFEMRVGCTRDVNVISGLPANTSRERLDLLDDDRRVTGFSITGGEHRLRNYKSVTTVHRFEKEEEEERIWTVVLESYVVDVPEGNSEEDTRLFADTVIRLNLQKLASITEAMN
Substitution = L91R; result = -3.32%
Substitution = E139I; result = -6.35%
Substitution = V70F; result = 1.92%
Substitution = S27K; result = -9.8%
Substitution = K126Q; result = 40.4%
Substitution = V137I; result = 3.81%
Substitution = D75R; result = 4.54%
Substitution = A84T; result = 16.8%
Substitution = D95V; result = -2.97%
Substitution = N165P; result = 5.28%
Substitution = S117I; result = -1.73%
Substitution = C25D; result = -8.82%
Substitution = H34V; result = 5.42%

Single results of other studies
Substance = PhoQ, residues 284 288 289 292 302 303 SQSLSM; target = PhoP, residues 12 14 15 18 19 LHSVW (Escherichia coli, UniProt P23836); assay = Sort-seq, measured: YFP reporter; system = E. coli; setting = PhoQ-PhoP variant library, added: 10 µM Mg2+; how to read = baseline: high Mg2+ state, higher = stronger signaling; endpoint = fold induction; result = 1.3

Excerpt of the above (series 1):
Substitution = HKTFRKLRLFYTP [D11Y]; result = 2.04
Substitution = HKTFRKWRLFDTP [L7W]; result = 2.01
Substitution = HTTFRKLRLFDTP [K2T]; result = 1.93
